Assay results gathered from unrelated publications.
A part holds a random share of what one study measured.

Block 1 — method: protein-binding microarray; form: double-stranded DNA, one strand shown; sample: in vitro; concentration: 0.8 µM; setting: whole 60-bp probe, no competitor; direction: higher = stronger binding; shared flanks, not repeated: … GTCTTGATTCGCTTGACGCTGCTG
Target: Centromere-binding protein 1, full length, N-terminal tag (CBF1, Saccharomyces cerevisiae, UniProt P17106, residues 1-351)
Chain of UniProt P17106 (whole entry, looked up): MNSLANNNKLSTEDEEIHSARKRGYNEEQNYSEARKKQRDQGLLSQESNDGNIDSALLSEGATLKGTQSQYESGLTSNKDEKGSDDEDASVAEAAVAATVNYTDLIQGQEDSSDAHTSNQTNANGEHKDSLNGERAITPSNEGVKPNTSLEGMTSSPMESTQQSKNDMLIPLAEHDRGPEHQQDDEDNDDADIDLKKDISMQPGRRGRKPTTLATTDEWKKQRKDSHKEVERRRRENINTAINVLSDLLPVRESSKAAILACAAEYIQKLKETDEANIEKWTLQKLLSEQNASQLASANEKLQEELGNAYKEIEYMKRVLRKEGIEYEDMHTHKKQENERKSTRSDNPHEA
Strand | fluorescence intensity [a.u.]
GAAAAAGTTGCTTATTTCATGACGGACAGATTTTAG | 525
GAATCACAAGGATTTCACGAGGATTTCTAACACTAG | 579
CTAGTAGGAATTGATCACGAAGAATTTCTAATCTTC | 556
CTAATGTCCAATCATAAGCTGATGTTGCTTTTATTC | 532
GAAAAAAGGTCCGAAGACGTGTAAAGGATATATTAG | 544
TGTACGAAGCTATATCATCAGTGTATAGTAGTTAGG | 534
CTAACTTTCCAGATTCAGATCACAGCAATATAGTTC | 590
TGTACGAAGCTATATGATGCAATTATAGTAGTTAGG | 503

Block 2 — method: RNA Bind-n-Seq; form: RNA; sample: in vitro; concentration: not given; baseline: input RNA pool; direction: higher = stronger binding
Target: RING finger protein unkempt homolog, zinc fingers 1-6, GST-SBP tag (UNK, Homo sapiens, UniProt Q9C0B0, residues 30-357)
Chain of UniProt Q9C0B0 (30-357, looked up): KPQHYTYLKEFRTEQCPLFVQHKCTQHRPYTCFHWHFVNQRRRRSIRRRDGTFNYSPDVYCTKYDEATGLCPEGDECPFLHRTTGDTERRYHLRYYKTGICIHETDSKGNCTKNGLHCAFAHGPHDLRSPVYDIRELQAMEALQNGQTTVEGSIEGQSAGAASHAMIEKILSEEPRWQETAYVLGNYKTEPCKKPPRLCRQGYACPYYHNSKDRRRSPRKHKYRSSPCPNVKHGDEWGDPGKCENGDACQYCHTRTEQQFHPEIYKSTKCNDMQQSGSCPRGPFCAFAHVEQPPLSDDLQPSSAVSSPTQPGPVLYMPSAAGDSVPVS
Setting: RNA with constant flanks, human-mouse chimeric sites, ends assumed
Shared flanks, not repeated: GGGAGUUCUACAGUCCGACGAUC … CAACAGAGGAUUGAGCAUCA
Strand | bound/input enrichment
CUGUGCGGGUGACUGUCCUGGAGUGGCUGGAGUUCCCGCCGGAGCGCGGCCAGACUAAUUUUAGAAAAUGCCAAGUAGGAAGUUUGUCGAUGGUGAAGUGGUCAGAGGCCGAUGGCCUGG | 1.2 ratio
UAAGUUAUUUUGUACAGCUUUGUAAAUUCUUAACAUUUUUAUAUUGCCAUGUUUAUUUUUUUUAGAUAAUUUGGUUCAUUAAGUACAUAGCUAAGGUAAUGAACAUCGUAAUUAUAGAUU | 1.98 ratio
UGGCGCCUGCGCUCCCCACUCGUGUUUUUAAGUGUAUAAGAUGUAUAUACAUGUAUUUACAAUUGAGCUUUUGUUACAUAAUGCUGAAAUGCUACUGGAGAUUAUGAAAAAUGUUUCAAU | 0.109 ratio
AUGGAGAAGGAUUCUCUGCCCCGCUUUGUGCGCUCUGAAUUUUAUAAGGAGCUAAUCAAGUAGUCAUCUGGUCAGGCUAUGAAAUCAUGCCCUGUGAGUUGAGUUACAUCCUUUGUAGCA | 0.302 ratio
GCCACCAGAUCCCAGAAACAUGACCCUUGCUGCCUACAAGGAGAAGAUGAAGGAGCUCCCGCUGGUGUCCUUGUUCUGCUCCUGCUUCCUGGCCGAUCCCCUGAAUAAAUCAUCCUACAA | 0.226 ratio

Block 3 — method: EMSA with sequencing; form: double-stranded DNA, one strand shown; sample: in vitro; concentration: 10 and 20 nM; baseline: negative control set to 0; direction: higher = stronger binding
Target: Hepatocyte nuclear factor 3-alpha (Foxa1, Mus musculus, UniProt P35582, residues 1-468, full length assumed)
Setting: whole designed probe, mean of two concentrations, ends assumed
Residues (chain): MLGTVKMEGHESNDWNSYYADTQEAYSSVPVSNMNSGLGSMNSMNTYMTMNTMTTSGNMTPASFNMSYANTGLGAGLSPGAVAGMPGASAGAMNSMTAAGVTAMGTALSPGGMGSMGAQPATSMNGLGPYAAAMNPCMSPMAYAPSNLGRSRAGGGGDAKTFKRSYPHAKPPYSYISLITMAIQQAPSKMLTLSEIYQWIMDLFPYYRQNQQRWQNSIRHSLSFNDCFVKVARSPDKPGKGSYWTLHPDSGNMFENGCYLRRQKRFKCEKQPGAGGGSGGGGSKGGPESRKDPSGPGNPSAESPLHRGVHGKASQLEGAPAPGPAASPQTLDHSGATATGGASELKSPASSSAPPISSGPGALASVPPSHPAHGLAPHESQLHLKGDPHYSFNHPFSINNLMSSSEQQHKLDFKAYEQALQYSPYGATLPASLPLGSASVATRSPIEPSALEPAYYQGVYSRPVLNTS
Strand | normalised bound fraction [ratio]
GTGAGCGGTGCCCATTGATGGGGAACCATACAAGAAAATAACTGTAGGCACAACTGGCACAATTATATTAGTAATAATGATGGGATAAAAATATAAAGATGCATATGTAAATTGATCTGTGTAAACATGAATATAGTATTTGCCAAGTGACATAGACAAATATATTAAATAATATACTTTTGAATATTGGTATCAGAATCATAAAATCTTTAAAAATCATTTCACTGGGATCGTGGGGAC | 0.463
GTGAGCGGTGCCCATTGATGGGGAACATCTTCCCCCTCTTCCTTGCCCCACCAGCTCACCTACGGGGGTTATTTGCACAAAGGAAAATAAATAAAGCCGGCATTCGTTAACCCTCTTCACGCGCATACTGCTGTTTGCTCTGCATCTAACATGGTCCTTACGCGACGCCAGGCTCCGGGAGAGCAAAGCACCGTGTCAGGCGCATGATCCGGGCTCGCCTTTCACTGGGATCGTGGGGAC | 0.392
GTGAGCGGTGCCCATTGATGGGGAACTTAGGACCTCCCCTGCCACCATCTGGGCAGTGAAGCTCTGCCGGTGTGCTACTGGCAGTGTCCCGGGTTGTGTGTGGAGACACTGAGCACTGTTGTTTACTTTAGAAGTTTATTGTCCCCAGAATGCTGCTCCCCCACAACTGTCTCCTGCAGCATGAAGGCTGACATTGTATCGTGGCTGTGTATCCACATGTTTCACTGGGATCGTGGGGAC | 0.498

Single results of other studies
Molecule | target | test | system | conditions | scale | endpoint | value
PhoQ, residues 284 288 289 292 302 303 SSCCRF | PhoP, residues 12 14 15 18 19 LHATL (Escherichia coli, UniProt P23836) | Sort-seq, refers to: YFP reporter | E. coli | PhoQ-PhoP variant library, added: 10 µM Mg2+ | baseline: high Mg2+ state, higher = stronger signaling | fold induction | 2.65

Excerpt of the above (block 1):
Strand | fluorescence intensity [a.u.]
GAAAAAAGGTCCGAAGACGTGTAAAGGATATATTAG | 544
